{"data": "Measurements from different studies", "note": "Numbered parts are unrelated; each lists some results of a single study. Substitutions count along the parent as printed."}
{"data": "Series 1", "target": "CCNE1, cyclin fold, Cln2 fusion (human)", "technique": "yeast growth competition, sequencing", "medium": "yeast", "notes": "weak parent motif", "baseline": "not given", "direction": "higher = stronger binding", "starting sequence": "DOT1L docking peptide (human); SEAKRRIVFTITT"}
{"Variant": "V8A", "normalised enrichment score": 0.172}
{"Variant": "R5A", "normalised enrichment score": -0.0333}
{"Variant": "E2A", "normalised enrichment score": 0.727}
{"Variant": "I7A", "normalised enrichment score": 0.334}
{"Variant": "K4A", "normalised enrichment score": 0.705}
{"Variant": "T13A", "normalised enrichment score": 0.635}
{"data": "Series 2", "target": "Prothrombin, mature alpha-thrombin (F2, Homo sapiens, UniProt P00734)", "technique": "aptamer microarray, sandwich", "form": "DNA with 2'F-ANA", "medium": "in vitro", "tested at": "200 nM", "notes": "whole 15-mer aptamer, many near background", "added": "Cy3 exosite-II aptamer, 400 nM", "direction": "higher = stronger binding", "sequence": "GGTTGGTGTGGTTGG"}
{"Modification": "2'F-ANA at 1 5 7 8 9 15", "mean fluorescence intensity": "72.2 a.u."}
{"Modification": "2'F-ANA at 1 2 3 4 5 7 8 12 13", "mean fluorescence intensity": "90.3 a.u."}
{"Modification": "2'F-ANA at 2 7 8 10 11 12", "mean fluorescence intensity": "181 a.u."}
{"Modification": "2'F-ANA at 2 4 5 8 9 10 11 15", "mean fluorescence intensity": "91.1 a.u."}
{"Modification": "2'F-ANA at 1 4 10 12 14 15", "mean fluorescence intensity": "44.8 a.u."}
{"Modification": "2'F-ANA at 4 5 8 10 11 12 13 14 15", "mean fluorescence intensity": "62.7 a.u."}
{"Modification": "2'F-ANA at 7 12 15", "mean fluorescence intensity": "929 a.u."}
{"Modification": "2'F-ANA at 1 3 4 10 14 15", "mean fluorescence intensity": "52.4 a.u."}
{"Modification": "2'F-ANA at 2 5 6 7 15", "mean fluorescence intensity": "74.4 a.u."}
{"Modification": "2'F-ANA at 1 4 6 7 8 9 10", "mean fluorescence intensity": "52.2 a.u."}
{"Modification": "2'F-ANA at 2 5 8 9 11 13", "mean fluorescence intensity": "82.7 a.u."}
{"Modification": "2'F-ANA at 1 3 7 8 11 13 14 15", "mean fluorescence intensity": "101 a.u."}
{"Modification": "2'F-ANA at 1 6 8 12 13 15", "mean fluorescence intensity": "350 a.u."}
{"Modification": "2'F-ANA at 2 6 7 8 9 10 13 14 15", "mean fluorescence intensity": "121 a.u."}
{"Modification": "2'F-ANA at 2 3 5 8 9 10 13 15", "mean fluorescence intensity": "53.9 a.u."}
{"Modification": "2'F-ANA at 3 4 6 8 10 12 13", "mean fluorescence intensity": "279 a.u."}
{"Modification": "2'F-ANA at 2 3 4 6 8 9 11 12 13 14", "mean fluorescence intensity": "231 a.u."}
{"Modification": "2'F-ANA at 2 4 5 10 11 15", "mean fluorescence intensity": "49.8 a.u."}
{"Modification": "2'F-ANA at 1 2 4 5 7 8 10 15", "mean fluorescence intensity": "59.7 a.u."}
{"Modification": "2'F-ANA at 1 3 6 7 9 12 14 15", "mean fluorescence intensity": "265 a.u."}
{"Modification": "2'F-ANA at 1 3 12 13 14 15", "mean fluorescence intensity": "127 a.u."}
{"Modification": "2'F-ANA at 3 4 6 8 13 15", "mean fluorescence intensity": "444 a.u."}
{"data": "Series 3", "target": "Sal-like protein 4, full length isoform A (SALL4, Homo sapiens, UniProt Q9UJQ4, residues 1-1053)", "technique": "universal PBM", "form": "double-stranded DNA, one strand shown", "medium": "in vitro", "tested at": "600 nM", "notes": "8-mer, flanks averaged, mean of replicates", "direction": "higher = stronger binding", "chain of UniProt Q9UJQ4 (whole entry, looked up)": "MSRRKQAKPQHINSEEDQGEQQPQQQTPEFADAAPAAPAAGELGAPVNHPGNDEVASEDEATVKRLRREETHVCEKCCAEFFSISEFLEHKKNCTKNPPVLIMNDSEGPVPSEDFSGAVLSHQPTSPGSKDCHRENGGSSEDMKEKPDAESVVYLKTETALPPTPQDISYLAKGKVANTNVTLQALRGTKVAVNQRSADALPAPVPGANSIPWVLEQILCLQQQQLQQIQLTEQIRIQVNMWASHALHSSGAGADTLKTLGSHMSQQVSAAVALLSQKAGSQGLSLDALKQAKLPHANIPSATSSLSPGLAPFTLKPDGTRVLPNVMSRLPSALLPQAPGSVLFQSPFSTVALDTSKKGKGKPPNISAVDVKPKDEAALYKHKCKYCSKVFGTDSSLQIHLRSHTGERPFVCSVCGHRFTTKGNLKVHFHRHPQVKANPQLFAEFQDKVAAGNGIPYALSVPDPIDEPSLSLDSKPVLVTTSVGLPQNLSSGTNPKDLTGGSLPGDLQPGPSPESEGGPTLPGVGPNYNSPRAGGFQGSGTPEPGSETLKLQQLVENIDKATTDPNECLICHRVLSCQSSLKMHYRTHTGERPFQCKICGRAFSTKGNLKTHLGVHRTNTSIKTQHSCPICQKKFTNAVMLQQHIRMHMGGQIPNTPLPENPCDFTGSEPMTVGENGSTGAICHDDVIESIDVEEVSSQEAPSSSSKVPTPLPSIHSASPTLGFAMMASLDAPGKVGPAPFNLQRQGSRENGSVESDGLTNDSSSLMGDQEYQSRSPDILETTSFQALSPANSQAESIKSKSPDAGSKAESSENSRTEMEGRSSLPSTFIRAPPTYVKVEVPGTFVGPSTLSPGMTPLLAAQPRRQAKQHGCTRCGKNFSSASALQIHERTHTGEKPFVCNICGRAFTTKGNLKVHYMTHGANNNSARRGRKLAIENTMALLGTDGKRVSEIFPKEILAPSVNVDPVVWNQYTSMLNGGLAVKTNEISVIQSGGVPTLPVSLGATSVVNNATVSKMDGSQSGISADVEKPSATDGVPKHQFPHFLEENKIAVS"}
{"Sequence": "CCAGAATA", "E-score": 0.136}
{"Sequence": "ACCGGGGG", "E-score": -0.383}
{"Sequence": "CAAGATAA", "E-score": 0.22}
{"Sequence": "ACCGATTG", "E-score": 0.0749}
{"Sequence": "TACCCTCA", "E-score": -0.132}
{"Sequence": "CCGTTTAC", "E-score": -0.0342}
{"Sequence": "ATCCATTC", "E-score": 0.0937}
{"Sequence": "GATCAACC", "E-score": -0.19}
{"Sequence": "AGACCCCG", "E-score": -0.226}
{"Sequence": "CGTCAGTA", "E-score": 0.00666}
{"Sequence": "ACCAACAC", "E-score": 0.0147}
{"Sequence": "CAAATCCG", "E-score": 0.0144}
{"Sequence": "CATCGGAA", "E-score": 0.0715}
{"Sequence": "GACCTATA", "E-score": 0.249}
{"Sequence": "CCATAGCG", "E-score": -0.0972}
{"Sequence": "CGCTTTAC", "E-score": 0.0401}
{"Sequence": "ATCGAGAT", "E-score": 0.0422}
{"Sequence": "CTCTAGTA", "E-score": 0.0973}
{"Sequence": "CTATGTGA", "E-score": 0.0794}
{"Sequence": "GACACGAA", "E-score": -0.168}
{"Sequence": "ATGGGCTG", "E-score": -0.159}
{"Sequence": "AATACGCA", "E-score": 0.121}
{"Sequence": "TGAGTGAA", "E-score": 0.0874}
{"Sequence": "GGAGGGTA", "E-score": -0.0803}
{"data": "Series 4", "target": "RNA binding protein fox-1 homolog 2, RRM domain, GST-SBP tag (RBFOX2, Homo sapiens, UniProt O43251-10, residues 100-194)", "technique": "RNA Bind-n-Seq", "form": "RNA", "medium": "in vitro", "tested at": "365 nM", "notes": "natural RNA segment, single round, ends assumed", "baseline": "no-protein control", "direction": "higher = stronger binding", "all sequences stand within": "GGGAGUUCUACAGUCCGACGAUC … UGGAAUUCUCGGGUGCCAA", "Residues (chain)": "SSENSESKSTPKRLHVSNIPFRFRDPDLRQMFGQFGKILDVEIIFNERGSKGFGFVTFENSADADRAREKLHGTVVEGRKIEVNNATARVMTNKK"}
{"Sequence": "GGCCCCAUUGGAGAGCCAUCCAAACUGAGGAAAAUUAGGGGACUCCAAAAGAGUUUGAUUCUGGCACAUUCUUGCCGCUGCCCCCAAGUUAACAACAGUAGGUAAUUUGC", "RBNS enrichment (R)": 0.517}
{"Sequence": "CUUUCCAAAAAUGGAAGAUCCAAAAAUGGGGAUGUUUUAUGUACCCGGGUUAUUUUGUAUGAAUUCAAUCAAUUAGGAAAUAAAAAGAUUUUAAAUGUGUCUAAGGAGAA", "RBNS enrichment (R)": 0.957}
{"Sequence": "CCACAGCACCCAGGAGUGGCCCUGUCUUGCCACAAAGAGCCCGACCAGCAGGUCCUGCAGCUUACCAAGCCCAGGGUGUGUGGGGCCCUCACGCAGUUCGACUGGGAAAA", "RBNS enrichment (R)": 0.253}
{"Sequence": "AUACAGUUCUCUUCCUUCUCCCCUCCCACCUUUCCCUGGCUUUUUGCCUCCAUUCCAUGAGGCAUACAGUAAGGCUGCCUGCUAGUAAGCAGUCACAUAAGUGGGUACCU", "RBNS enrichment (R)": 0.262}
{"Sequence": "UAACACACUGGCCAUUCUUAUGUUCCAGAUGGCCCCCAGCUGGUGUCCUGCCCGCCUUUCAUCUGGAUUCUACAAAAAACCAGGAUGCCCACCGUUAGGAUUCAGGCAGC", "RBNS enrichment (R)": 0.217}
{"Sequence": "GGUUGAUGCUGCCACACUUUGUAGAGAGUUUAGCAACACAGUGUGCUUAGUCAGCGUAGGAAUCCUCACUAAAGCAGAAGAAGUUCCAUUCAAAGUGCCAAUGAUAGAGU", "RBNS enrichment (R)": 0.396}
{"Sequence": "UCAGUGAUUGUAAGUUUGCCUGAUACUCAGCACACAUCUAUGUUUUCCUAUGAGCAGUUCAACCUGUGCCUGCAAAGCCAAAGGGGCUGAGGUACAUUAGAGCAUGGAGG", "RBNS enrichment (R)": 1.08}
{"Sequence": "UUACCUGGCCUGUAAGCUUCUUACUGAUUGAUUGUCUAAGGCUCCUGUCAGAGCCCACCUAGAAGCAGGCUCCUAGUGAUACUUUGUUUCCAAGGCAGAAGUGGCCCAUG", "RBNS enrichment (R)": 1.4}
{"Sequence": "CUCCUCCCCCGCUCCCCAACUUCUCGCCCAGCUGGCCGAGGCGGGGCAACACUAAGGUGCUCUUAGAAACACUAAUGUUCCUCUGGGGCAGCCCCCACCUCCGUCCUGAC", "RBNS enrichment (R)": 0.374}
{"Sequence": "UUGAUUUUGAUCAGCCUUUUGAAGAUGGGUGUCGUUUCCCUAACUUAUCUCACAGAAUUUUGAGUGUUGUAUUUGGCAAGUUCUGAGAUUUGCCUUCUGUCUUAUGCCAA", "RBNS enrichment (R)": 0.769}
{"Sequence": "CUGUCGCACACCCCUUCCUCUCCCAUGCAGUCACCUCAGGACUCCCGACAUACAUCACAAAGGCUGCUUCAUGGCUGGGUGUGGGACCAGAUGCCAGCAAGGAUGGAAGC", "RBNS enrichment (R)": 0.556}
{"Sequence": "CCAGCCAAGAUGGGGCCAUUCUCUCUGUGGAGGAGCCCCUUCCAGCCUUUGUCAGGAAGUGUCUUUGGGGAUUCUAGAAUGUUGGGACUUCUCAGUGUGUGUGUUGUGGU", "RBNS enrichment (R)": 6.27}
{"data": "Series 5", "target": "Interferon regulatory factor 7, full length, phosphomimetic (IRF7, Homo sapiens, UniProt Q92985, residues 1-503, S101K/S471D/S472D/S475D/S476D/S477D/S483D/S484D/S487D)", "technique": "protein-binding microarray", "form": "double-stranded DNA, one strand shown", "medium": "in vitro", "tested at": "250 nM", "notes": "60-bp whole probe", "added": "salmon DNA 0.4 mg/ml", "baseline": "random background probes", "direction": "higher = stronger binding", "all sequences stand within": "GCCTAGCAC … GTCTTGATTCGCTTGACGCTGCTG", "Residues (chain)": "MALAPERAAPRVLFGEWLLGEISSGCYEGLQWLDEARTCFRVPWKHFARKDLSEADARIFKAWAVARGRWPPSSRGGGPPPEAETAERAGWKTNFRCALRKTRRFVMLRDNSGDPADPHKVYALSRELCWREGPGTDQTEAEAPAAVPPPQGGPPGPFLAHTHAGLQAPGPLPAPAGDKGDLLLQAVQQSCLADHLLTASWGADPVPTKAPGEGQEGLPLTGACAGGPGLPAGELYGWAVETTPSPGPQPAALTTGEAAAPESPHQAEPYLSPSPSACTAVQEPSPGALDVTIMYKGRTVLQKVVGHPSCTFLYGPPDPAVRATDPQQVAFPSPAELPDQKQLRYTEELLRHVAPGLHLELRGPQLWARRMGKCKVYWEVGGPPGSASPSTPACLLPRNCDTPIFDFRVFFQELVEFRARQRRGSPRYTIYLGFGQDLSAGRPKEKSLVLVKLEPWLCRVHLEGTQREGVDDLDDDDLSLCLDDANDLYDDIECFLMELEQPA"}
{"Sequence": "TCATTTTTCTAACCCATACTGTGCTAG", "log fluorescence [z-score]": 1.32}
{"Sequence": "GACGGTTCCGCTTTCGGGACGTGCTAG", "log fluorescence [z-score]": 4.25}
{"Sequence": "TTAGGACTGCTTCTACTTTAGTGCTAG", "log fluorescence [z-score]": 0.329}
{"Sequence": "TTGGGACTGGGGTTTCGGTTAGTGCTA", "log fluorescence [z-score]": 4.97}
{"Sequence": "GACGATATCGGATTTCGAGACGTGCTA", "log fluorescence [z-score]": 0.0857}
{"Sequence": "GACGGTAACCTTTTCCTGACGTGCTAG", "log fluorescence [z-score]": 0.153}
{"Sequence": "GCACTTTTCCCCCTAGTTGTGTGCTAG", "log fluorescence [z-score]": 1.43}
{"Sequence": "GACGATATCGAGTATCGAGACGTGCTA", "log fluorescence [z-score]": 0.116}
{"Sequence": "TACGATTTCAGTTCCGAGACGTGCTAG", "log fluorescence [z-score]": 0.603}
{"Sequence": "TTAGGTCTCGGACTTGGTTAGTGCTAG", "log fluorescence [z-score]": 0.497}
{"Sequence": "GAGGGTATCCTACTGCTGACGTGCTAG", "log fluorescence [z-score]": -0.663}
{"Sequence": "TCAGCTTTGACTCTTTCACTGTGCTAG", "log fluorescence [z-score]": -0.44}
{"Sequence": "TTAGGTCTCGTTTTCCTTTAGTGCTAG", "log fluorescence [z-score]": 8.15}
{"Sequence": "GATGGTTTCGGGTTTCGGGACGTGCTA", "log fluorescence [z-score]": 11.9}
{"Sequence": "TAAGGTATCCTTTTCCTTTAGTGCTAG", "log fluorescence [z-score]": 1.79}
{"Sequence": "TCATCTTTATGTACTCTCACTGTGCTA", "log fluorescence [z-score]": 0.703}
{"Sequence": "TTAGATTTCGGGACTGGATAAGTGCTA", "log fluorescence [z-score]": 0.202}
{"Sequence": "TCATCTATCTCTGTTTTACTGTGCTAG", "log fluorescence [z-score]": 0.718}
{"Sequence": "GACGGTAGCGGACTGGGGACGTGCTAG", "log fluorescence [z-score]": -1.04}
{"Sequence": "GACGATCTCAGACTGTAGACGTGCTAG", "log fluorescence [z-score]": -0.324}
{"Sequence": "CGAGATCTCCGAGATGCCTTCGTGCTA", "log fluorescence [z-score]": "-3.03e-05"}
{"Sequence": "TTAGATTTCGGGTTTGGATTAGTGCTA", "log fluorescence [z-score]": 1.86}
{"Sequence": "TCAGTTTCTATTTTCTGACTGTGCTAG", "log fluorescence [z-score]": 9.33}
{"Sequence": "TTAGGTTTCGGTATCGGATAGTGCTAG", "log fluorescence [z-score]": 10.7}
{"Sequence": "TTCACTTTCTTTAACTCATTGTGCTAG", "log fluorescence [z-score]": 0.927}
